{"data": "Published values collected from several papers", "target": "Alpha-glucosidase MAL12 (MAL12, Saccharomyces cerevisiae S288c, UniProt P53341)", "note": "± gives the spread as reported.", "UniProt P53341, sequence (whole entry, looked up)": "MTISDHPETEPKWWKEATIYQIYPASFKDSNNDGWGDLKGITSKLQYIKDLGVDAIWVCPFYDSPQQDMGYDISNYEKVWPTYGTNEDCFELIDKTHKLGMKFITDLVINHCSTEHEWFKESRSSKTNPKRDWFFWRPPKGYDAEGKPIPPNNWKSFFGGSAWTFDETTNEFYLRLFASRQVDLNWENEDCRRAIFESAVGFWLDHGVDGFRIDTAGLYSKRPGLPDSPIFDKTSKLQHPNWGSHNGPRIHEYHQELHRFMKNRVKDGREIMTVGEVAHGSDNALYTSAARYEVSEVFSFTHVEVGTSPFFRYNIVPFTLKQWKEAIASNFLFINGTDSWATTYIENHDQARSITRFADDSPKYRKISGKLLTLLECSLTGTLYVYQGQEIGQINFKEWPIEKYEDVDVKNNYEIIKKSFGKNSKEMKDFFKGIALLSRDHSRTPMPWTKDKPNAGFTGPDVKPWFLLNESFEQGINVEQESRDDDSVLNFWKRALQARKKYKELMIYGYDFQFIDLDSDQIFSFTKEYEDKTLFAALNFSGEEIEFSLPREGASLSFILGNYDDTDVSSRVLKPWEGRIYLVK"}
{"SMILES": "CNC(=S)N/N=C/c1coc2cc(F)ccc2c1=O", "test": "enzyme activity, inhibitor", "conditions": "500 µM", "inhibition": "74.5%"}
{"SMILES": "Cc1cc(=O)oc2c(Cn3ccnc3)c(O)ccc12", "test": "inhibitor", "conditions": "25 µM", "inhibition": "53.6%"}
{"SMILES": "O=c1c(/C=N/NC(=S)Nc2ccc(Br)cc2)coc2cc(F)ccc12", "test": "enzyme activity, inhibitor", "conditions": "500 µM", "inhibition": "92.2%"}
{"SMILES": "COc1ccc(-c2c(C)oc3c(Cn4nc(C)cc4C)c(O)ccc3c2=O)cc1", "test": "inhibitor", "conditions": "25 µM", "inhibition": "21.8%"}
{"SMILES": "COc1ccc(NC(=S)N/N=C/c2coc3cc(F)ccc3c2=O)cc1", "test": "enzyme activity, inhibitor", "conditions": "500 µM", "inhibition": "90.6%"}
{"SMILES": "Oc1cc2c(cc1O)C(Cc1ccccc1)NCC2 (stereo not drawn)", "test": "enzyme activity, inhibitor", "conditions": "100 µM, DMSO solvent, together with: pNPG substrate", "inhibition": "72.9 ± 1.51%"}
{"SMILES": "Oc1ccc(Cn2cccn2)cc1", "test": "inhibitor", "conditions": "25 µM", "inhibition": "< 0%"}
{"SMILES": "COc1cc(C(=O)CCO)ccc1O", "test": "inhibitor", "conditions": "100 µg/mL, 0.4167 h, together with: p-nitrophenyl glucoside substrate", "inhibition": "45.3 ± 2.94%"}
{"SMILES": "COc1ccc(-c2cc(-c3ccc4oc(=O)cc(C)c4c3O)nc(N)n2)cc1", "test": "enzyme activity, inhibitor", "conditions": "concentration not given", "inhibition": "75.8 ± 1.24%"}
{"SMILES": "CCCCCC1NCCc2cc(O)c(O)cc21 (stereo not drawn)", "test": "enzyme activity, inhibitor", "conditions": "100 µM, together with: pNPG substrate", "inhibition": "49.8 ± 0.64%"}
{"SMILES": "O=c1c(-c2ccc(OC(F)(F)F)cc2)coc2c(Cn3ccnc3)c(O)ccc12", "test": "inhibitor", "conditions": "25 µM", "inhibition": "29.9%"}
{"SMILES": "CCCCCCCCCCCC1NCCc2cc(O)c(O)cc21 (stereo not drawn)", "test": "enzyme activity, inhibitor", "conditions": "100 µM, DMSO solvent, together with: pNPG substrate", "inhibition": "68.2 ± 2.34%"}
{"SMILES": "Cc1ccc(NC(=S)N/N=C/c2coc3cc(F)ccc3c2=O)cc1", "test": "enzyme activity, inhibitor", "conditions": "500 µM", "inhibition": "89%"}
{"SMILES": "CCCCCCCCC1NCCc2cc(O)c(O)cc21 (stereo not drawn)", "test": "enzyme activity, inhibitor", "conditions": "100 µM, DMSO solvent, together with: pNPG substrate", "inhibition": "35.5 ± 1.57%"}
{"SMILES": "Cc1cc(=O)oc2ccc(-c3cc(-c4ccccc4)nc(N)n3)c(O)c12", "test": "enzyme activity, inhibitor", "conditions": "concentration not given", "inhibition": "65.2 ± 1.23%"}
{"SMILES": "COc1cc(Cn2nc(C)cc2C)ccc1O", "test": "inhibitor", "conditions": "25 µM", "inhibition": "4.9%"}
{"SMILES": "COc1cccc(C2NCCc3cc(O)c(O)cc32)c1O (stereo not drawn)", "test": "enzyme activity, inhibitor", "conditions": "100 µM, DMSO solvent, together with: pNPG substrate", "inhibition": "37.2 ± 2.85%"}
{"SMILES": "C[C@@H]1O[C@@H](Oc2ccc(CC#N)cc2)[C@H](O)[C@H](O)[C@H]1O", "test": "inhibitor", "conditions": "100 µg/mL, 0.4167 h, together with: p-nitrophenyl glucoside substrate", "inhibition": "27.3 ± 1.71%"}
{"SMILES": "Cc1cccc(C)c1NC(=S)N/N=C/c1coc2cc(F)ccc2c1=O", "test": "enzyme activity, inhibitor", "conditions": "500 µM", "inhibition": "89.6%"}
{"SMILES": "Oc1ccc(C2NCCc3cc(O)c(O)cc32)cc1O (stereo not drawn)", "test": "enzyme activity, inhibitor", "conditions": "100 µM, DMSO solvent, together with: pNPG substrate", "inhibition": "62.7 ± 3.2%"}
{"SMILES": "O=c1c(/C=N/NC(=S)Nc2ccc(F)cc2)coc2cc(F)ccc12", "test": "enzyme activity, inhibitor", "conditions": "500 µM", "inhibition": "91.7%"}
{"SMILES": "Cc1ccc(-c2cc(-c3ccc4oc(=O)cc(C)c4c3O)nc(N)n2)cc1", "test": "enzyme activity, inhibitor", "conditions": "concentration not given", "inhibition": "87.5 ± 1.24%"}
{"SMILES": "COc1ccc(C2NCCc3cc(O)c(O)cc32)cc1O (stereo not drawn)", "test": "enzyme activity, inhibitor", "conditions": "100 µM, DMSO solvent, together with: pNPG substrate", "inhibition": "55.6 ± 1.29%"}
{"SMILES": "OCc1ccc(O)cc1", "test": "inhibitor", "conditions": "100 µg/mL, 0.4167 h, together with: p-nitrophenyl glucoside substrate", "inhibition": "45 ± 1.75%"}
{"SMILES": "O=c1c(/C=N/NC(=S)Nc2ccc(Cl)cc2)coc2cc(F)ccc12", "test": "enzyme activity, inhibitor", "conditions": "500 µM", "inhibition": "91.2%"}
{"SMILES": "COc1ccc(-c2coc3c(Cn4ccnc4)c(O)ccc3c2=O)cc1OC", "test": "inhibitor", "conditions": "25 µM", "inhibition": "1.08%"}
{"SMILES": "Oc1cc2c(cc1O)C(CCc1ccccc1)NCC2 (stereo not drawn)", "test": "enzyme activity, inhibitor", "conditions": "100 µM, DMSO solvent, together with: pNPG substrate", "inhibition": "62.7 ± 0.84%"}
{"SMILES": "Cc1cc(C)n(Cc2ccccc2O)n1", "test": "inhibitor", "conditions": "25 µM", "inhibition": "< 0%"}
{"SMILES": "CCCCCCCCCCCCCCNC(=O)/C=C/c1ccc(O)c(O)c1", "test": "enzyme activity", "conditions": "20 µM, together with: α-amylase present", "inhibition": "92.5 ± 6.85%"}
{"SMILES": "COc1cc(Cn2cccn2)ccc1O", "test": "inhibitor", "conditions": "25 µM", "inhibition": "< 0%"}
{"SMILES": "O=c1c(/C=N/NC(=S)NCc2ccccc2)coc2cc(F)ccc12", "test": "enzyme activity, inhibitor", "conditions": "500 µM", "inhibition": "90.1%"}
{"SMILES": "NC(=O)NCc1ccc(O)cc1", "test": "inhibitor", "conditions": "100 µg/mL, 0.4167 h, together with: p-nitrophenyl glucoside substrate", "inhibition": "33.8 ± 3.58%"}
{"SMILES": "O=c1c(O)c(-c2ccc(O)c(O)c2)oc2cc(O)cc(O)c12", "test": "enzyme activity", "conditions": "concentration not given, together with: p-nitrophenyl α-D-glucoside substrate", "inhibition": "98.7%"}
{"note": "A few entries again:"}
{"SMILES": "COc1cc(Cn2cccn2)ccc1O", "test": "inhibitor", "conditions": "25 µM", "inhibition": "< 0%"}
{"SMILES": "O=c1c(/C=N/NC(=S)NCc2ccccc2)coc2cc(F)ccc12", "test": "enzyme activity, inhibitor", "conditions": "500 µM", "inhibition": "90.1%"}
{"SMILES": "NC(=O)NCc1ccc(O)cc1", "test": "inhibitor", "conditions": "100 µg/mL, 0.4167 h, together with: p-nitrophenyl glucoside substrate", "inhibition": "33.8 ± 3.58%"}
{"SMILES": "O=c1c(O)c(-c2ccc(O)c(O)c2)oc2cc(O)cc(O)c12", "test": "enzyme activity", "conditions": "concentration not given, together with: p-nitrophenyl α-D-glucoside substrate", "inhibition": "98.7%"}
